Published values gathered from unrelated publications.
Parts stem from different laboratories: compare values within a part only.

Sample 1 — method: RNA Bind-n-Seq; form: RNA; medium: in vitro; concentration: 200 nM; setting: whole 134-nt RNA, ends assumed; added: 150 mM LiCl; baseline: input library; reading: higher = stronger binding; library: 7-deaza-guanosine replaces G
Target: Fragile X messenger ribonucleoprotein 1, C-terminal low-complexity region (Fmr1, Mus musculus, UniProt P35922)
Oligonucleotide | log2 enrichment
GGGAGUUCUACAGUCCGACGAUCGCAGGAAGUAAAAACAAAUGGAAAUGCUUCGGAUAGUGGCAGGGGUGGGGGUUGCUAAGGAAAGGGUGGAAUGGGAGUGGGUAAAGAGUUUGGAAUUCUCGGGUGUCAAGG | 1.42
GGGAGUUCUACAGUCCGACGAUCGUGCUACACAUCGUAUGUACCGAAUCGGGGCCCCCCCGGGGCCCCCCCGGGGCCCCCCCGGGGAAAGUAUUAUGUUACGCCGUUCGGAUCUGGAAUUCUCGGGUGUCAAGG | -2.62
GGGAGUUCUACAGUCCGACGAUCCCUGUGCUACACAUCGUAUGUACCGAAUCGGGGAAAAAAGGGAAAAAAGGAAAAAAGGGGAAAGUAUUAUGUUACGCCGUUCGGAUCUGCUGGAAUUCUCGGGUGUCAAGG | 0.315
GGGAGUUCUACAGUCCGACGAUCAAGUCCUGUGCUACACAUCGUAUGUACCGAAUCGGUUUUUUUGGUUUUUUUGGUGGAAAGUAUUAUGUUACGCCGUUCGGAUCUGCACUUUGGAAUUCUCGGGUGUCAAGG | -2.43
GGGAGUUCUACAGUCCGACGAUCUGGGAGGUGGAUUUUGUUUAUUUUUUUAGCUCAUUUCCAGGGGUGGGAAUUUUUUUUUAAUAUGUGUCAUGAAUAAAGUUGUUUGUGAAAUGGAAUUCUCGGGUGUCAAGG | -0.0883
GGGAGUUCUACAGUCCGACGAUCCUCAAGUCCUGUGCUACACAUCGUAUGUACCGAAUCGGGAGGGGAGGGGAGGGGAAAGUAUUAUGUUACGCCGUUCGGAUCUGCACUUCCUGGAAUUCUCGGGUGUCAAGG | -0.278
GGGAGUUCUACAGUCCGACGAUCCAAGUCCUGUGCUACACAUCGUAUGUACCGAAUCGGGGUUUGGGUUUGGUUUGGGAAAGUAUUAUGUUACGCCGUUCGGAUCUGCACUUCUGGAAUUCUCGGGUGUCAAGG | -0.826
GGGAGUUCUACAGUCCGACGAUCACAGAGGGUUUGGUGGACGUUAUUCUCUAUCAUCAACCCGAUGACAAAAAGAAGAAUCGGGGGUUCUGCUUCCUUGAAUAUGAGGAUCACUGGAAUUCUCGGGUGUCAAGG | -3.02

Sample 2 — method: universal PBM; form: double-stranded DNA, one strand shown; medium: in vitro; concentration: 600 nM; reading: higher = stronger binding
Target: Sal-like protein 4, full length isoform A (SALL4, Homo sapiens, UniProt Q9UJQ4, residues 1-1053)
UniProt Q9UJQ4, sequence (whole entry, looked up): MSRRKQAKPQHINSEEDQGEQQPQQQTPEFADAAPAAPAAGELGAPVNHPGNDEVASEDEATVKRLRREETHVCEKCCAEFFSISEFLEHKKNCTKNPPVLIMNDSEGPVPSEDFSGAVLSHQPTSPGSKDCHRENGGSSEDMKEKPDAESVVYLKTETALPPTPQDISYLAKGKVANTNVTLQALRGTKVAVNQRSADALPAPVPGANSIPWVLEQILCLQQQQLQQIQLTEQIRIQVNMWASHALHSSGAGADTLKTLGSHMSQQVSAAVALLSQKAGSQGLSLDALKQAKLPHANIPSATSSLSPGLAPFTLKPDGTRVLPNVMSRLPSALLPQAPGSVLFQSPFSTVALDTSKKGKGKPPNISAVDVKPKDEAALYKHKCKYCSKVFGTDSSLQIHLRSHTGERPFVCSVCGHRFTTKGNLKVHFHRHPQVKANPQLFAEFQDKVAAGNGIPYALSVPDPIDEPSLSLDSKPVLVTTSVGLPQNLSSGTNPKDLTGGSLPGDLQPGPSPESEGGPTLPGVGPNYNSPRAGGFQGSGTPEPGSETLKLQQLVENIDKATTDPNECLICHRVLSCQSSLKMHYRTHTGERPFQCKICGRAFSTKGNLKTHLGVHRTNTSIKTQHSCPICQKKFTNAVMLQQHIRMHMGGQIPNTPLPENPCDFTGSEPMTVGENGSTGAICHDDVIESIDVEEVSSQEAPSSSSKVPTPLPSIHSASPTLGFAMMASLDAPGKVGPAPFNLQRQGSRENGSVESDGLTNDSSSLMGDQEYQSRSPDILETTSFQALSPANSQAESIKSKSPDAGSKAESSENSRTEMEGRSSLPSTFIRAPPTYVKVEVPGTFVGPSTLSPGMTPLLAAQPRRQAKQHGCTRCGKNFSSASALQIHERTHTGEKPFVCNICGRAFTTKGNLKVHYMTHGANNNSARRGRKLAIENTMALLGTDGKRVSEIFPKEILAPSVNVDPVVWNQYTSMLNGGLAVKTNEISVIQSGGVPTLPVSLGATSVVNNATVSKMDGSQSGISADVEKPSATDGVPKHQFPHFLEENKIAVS
Setting: 8-mer, flanks averaged, mean of replicates
Oligonucleotide | E-score
CCACTGTC | -0.249
AAACGCAT | 0.0151
AAGAGCGT | 0.0524
CCATTCCG | -0.221
AGAGCAAC | -0.19
CGCTGGGA | -0.375
ATAAGATG | 0.181
TCTCTCAA | 0.0975
CGATTAAG | 0.208
AGGGCGCA | -0.288
ACCCCTCC | -0.304
GCGGCGTA | -0.222
ACAATAGA | 0.221
CGGGGGAA | -0.213
AATCACGT | 0.28
GTTCGACA | 0.00552
TGGCGTAA | 0.0368
CTCCGAAA | -0.0189
ACAATGCA | 0.233
CCACAAGC | -0.242
CATGAAGA | 0.171
AGCCTACT | -0.093
TCCCACAA | 0.0078
GCACGAAC | -0.065

Sample 3 — method: RNA Bind-n-Seq; form: RNA; medium: in vitro; concentration: 365 nM; baseline: no-protein control; reading: higher = stronger binding
Target: RNA binding protein fox-1 homolog 2, RRM domain, GST-SBP tag (RBFOX2, Homo sapiens, UniProt O43251-10, residues 100-194)
Setting: natural RNA segment, single round, ends assumed
Construct (chain): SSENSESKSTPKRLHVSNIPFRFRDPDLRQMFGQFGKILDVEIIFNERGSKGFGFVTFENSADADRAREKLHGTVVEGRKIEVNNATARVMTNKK
Oligonucleotide | RBNS enrichment (R)
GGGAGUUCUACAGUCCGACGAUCACACCGGAAGGUUUUUAAACACUAAAAUAUAUAAUUUAUAGUUAAGGCUAAAAAGUAUAUUUAUUGCAGAGGAUGUUCAUAAGGCCAGUAUGAUUUAUAAAUGCAAUCUCUGGAAUUCUCGGGUGCCAA | 0.726
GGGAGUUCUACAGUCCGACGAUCAUUUGUGAAGAGGUUCGCAGGGAUAAGGGGUGCACUUUAUAGCUAUGGAAACAUGAGAUUCUCCUCUAUUGGAAGCUAAUUAGCCCACAAAGGUGGUAAACCUGUAGAUUUGGAAUUCUCGGGUGCCAA | 0.483
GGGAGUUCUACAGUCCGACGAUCUAUCUAGCUUCCAUAAUUUAUACCAGAACAAAAUGUUUUAGCCAGUUUGUUUCUACAUACCUAUGACCACAGCUCUGGAAAAAUAGCAAAUGAAGAAAUGAAUUGCCAAAUGGAAUUCUCGGGUGCCAA | 0.326
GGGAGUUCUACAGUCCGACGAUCGUGCUGACGAUUUUCACACUGUGUUUACCACUCCAUCACCUCUCAACCUUUGCUUCGACAGGUCUUCACUCACGAUUUAUUCCUCCAGGUCUUUGAUUGGAGAGAGUAACUGGAAUUCUCGGGUGCCAA | 0.444
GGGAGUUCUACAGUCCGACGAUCAUCUCCCAUUUUAACCACUUUUAGAUACUGCUCCUUAUUUAAGUUACCCUUUUAGCAGAUAAUUCGGAGCAUUAUUUAUUUAAAGAAUUUAUAAUUCUACAGUACCUAUUUGGAAUUCUCGGGUGCCAA | 0.929
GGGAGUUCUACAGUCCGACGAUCGCUUCCUGGUUAUCACUUACAUUCCGUAAGGAGCUGUUCCUUAGGACCGGUUGGAAGUAGAAGAAACAUCUCUCCCUGCACCCGAAUGUCCAGUGGAGCCUCAAGUUUUCUGGAAUUCUCGGGUGCCAA | 0.211
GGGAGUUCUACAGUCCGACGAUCGAACUGCCAAGAAAAGGCAUGGAGACAGCGAACUAGAAGAAAGGGCAAGAAGGAAAUAGCCACCGUCUACAGAUGGCUUAGUUAAGUCAUCCACAGCCCAAGGGCGGGGCUGGAAUUCUCGGGUGCCAA | 0.587
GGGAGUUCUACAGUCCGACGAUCCUGACUCAGUUUCUCUUGUUGGGUGGGGGCCUUGUGCCACAACCUGCAUGGGGUGCUAGGGUUUAAACCAAGUGGUCACGAAGGAUUCUUAUCUCAGGGCUCUGCCUGGCUGGAAUUCUCGGGUGCCAA | 0.264

Sample 4 — method: RNA Bind-n-Seq; form: RNA; medium: in vitro; concentration: not given; baseline: input RNA pool; reading: higher = stronger binding
Target: RING finger protein unkempt homolog, zinc fingers 1-6, GST-SBP tag (UNK, Homo sapiens, UniProt Q9C0B0, residues 30-357)
UniProt Q9C0B0, sequence (30-357, looked up): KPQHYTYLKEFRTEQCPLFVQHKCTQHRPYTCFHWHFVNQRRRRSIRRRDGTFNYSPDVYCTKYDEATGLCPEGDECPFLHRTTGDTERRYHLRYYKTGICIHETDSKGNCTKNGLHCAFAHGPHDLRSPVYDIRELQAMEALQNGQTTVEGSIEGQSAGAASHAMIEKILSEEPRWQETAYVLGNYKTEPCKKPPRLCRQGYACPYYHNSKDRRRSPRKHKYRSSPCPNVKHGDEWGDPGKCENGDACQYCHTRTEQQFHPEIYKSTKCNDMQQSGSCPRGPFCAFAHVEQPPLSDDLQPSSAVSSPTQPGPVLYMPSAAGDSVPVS
Setting: RNA with constant flanks, human and mouse sites, ends assumed
Oligonucleotide | bound/input enrichment [ratio]
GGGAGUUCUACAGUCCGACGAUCGGUUUCCUGGCCUGUUGCAGCCAUGGUGCAUUGCAGUUGCGUGUUGUUCAGAAAGUAUGGAAAUUUCAUCGAUAAGCUAAGACUCUUCACCAGGGGAGGAUCCGGUGGAAUGGGUUAUCCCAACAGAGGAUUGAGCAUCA | 0.125
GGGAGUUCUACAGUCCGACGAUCCAGGAAUGGAAGGCAAACAGUUCUGCUAUUAUUGAUCACAUAUUUGCCAGUAAAGCAGUGGUGAAUGCCGCAAUUCCAGCCUAUCACCUAAGAGACCUUAUCAAAAGCAUGCUUCAUGAUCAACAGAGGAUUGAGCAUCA | 0.112
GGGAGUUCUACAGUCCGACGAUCACCCUUUCUGGGGUCCAAGAAGAAUCUGCCCUUUGCUAUCUUCUCCAAGUUGAUGAGUUUAGAUUUUUAUUGGACUGUGGCUGGGAUGAGCACUUUUCUAUGGAUAUUAUUGAUUCCCUGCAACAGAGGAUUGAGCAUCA | 0.455
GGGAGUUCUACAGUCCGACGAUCCUUCUGUUUCAUACAAUAUCCUUUCAUACUUCUGCUAAUCUGCUAAUGUAAUUUGGAAGAUAGCUGUCACCAGGAUAACCUGUAAUGGGCAAGGAGCCACAGAGAAGAAAACAUUUCUUUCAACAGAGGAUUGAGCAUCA | 0.13
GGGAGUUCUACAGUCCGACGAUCUAUUUGUCAUAGUUUUUUAAGAAGAGGACCAAACGGAAGUAUCUUAUGGUUUCUUGUUACUCUGGGUUUUAUCAUUAUAUAAGUUAUUGGGUUUUUAACAUUUUUCAACUUAUGUUCUUUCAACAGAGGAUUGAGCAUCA | 11.5
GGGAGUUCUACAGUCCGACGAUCUUACUUACUUAAUUUCUGGAGUUCGGGCCUCUGGGAUAGGCCCCAGACUGGGCCGGAAUGUUAGUGAAGGUUUUAUUGUGCCCGGUUGGAGGAUAAUGUUCUUUGUGUACUUUUUGUGGGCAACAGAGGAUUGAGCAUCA | 0.487
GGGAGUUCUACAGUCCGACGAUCCUACUGUCCGAAGGCCUUCUUUCCCCACUCAAUUCUUCCUGCCCUGUUAUUAAUUAAGAUAUCUUCAGCUUGUAGUCAGACACAAUCAGAAUCACAGAAAAAUCCUGCCUAAGGCAAAGACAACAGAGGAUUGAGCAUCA | 0.228
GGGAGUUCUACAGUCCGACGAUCCAGAGUGAUUCAAACCUGCAACUGGAGUACAGUGGAUUGCUUCCAACAAAAAAUCAAUAUUCUCUAAAUCCCAACAGCCAAGAAAUAAGCUGUCUUUUAUAAAGCAUUGCUAGAGUGACACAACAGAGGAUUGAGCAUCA | 0.235

For quick reference, copied from above (sample 1):
Oligonucleotide | log2 enrichment
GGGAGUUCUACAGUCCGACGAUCGUGCUACACAUCGUAUGUACCGAAUCGGGGCCCCCCCGGGGCCCCCCCGGGGCCCCCCCGGGGAAAGUAUUAUGUUACGCCGUUCGGAUCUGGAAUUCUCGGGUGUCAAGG | -2.62
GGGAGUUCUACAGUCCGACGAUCACAGAGGGUUUGGUGGACGUUAUUCUCUAUCAUCAACCCGAUGACAAAAAGAAGAAUCGGGGGUUCUGCUUCCUUGAAUAUGAGGAUCACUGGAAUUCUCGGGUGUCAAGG | -3.02
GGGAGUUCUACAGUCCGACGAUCAAGUCCUGUGCUACACAUCGUAUGUACCGAAUCGGUUUUUUUGGUUUUUUUGGUGGAAAGUAUUAUGUUACGCCGUUCGGAUCUGCACUUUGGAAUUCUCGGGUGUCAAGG | -2.43
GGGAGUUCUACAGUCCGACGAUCUGGGAGGUGGAUUUUGUUUAUUUUUUUAGCUCAUUUCCAGGGGUGGGAAUUUUUUUUUAAUAUGUGUCAUGAAUAAAGUUGUUUGUGAAAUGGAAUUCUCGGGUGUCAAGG | -0.0883
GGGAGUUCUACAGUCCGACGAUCCUCAAGUCCUGUGCUACACAUCGUAUGUACCGAAUCGGGAGGGGAGGGGAGGGGAAAGUAUUAUGUUACGCCGUUCGGAUCUGCACUUCCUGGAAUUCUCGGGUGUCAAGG | -0.278
